Published values collected from several papers.
Each line is one published result; not all experiments were run side by side. ± gives the spread as reported.

| SMILES | system | conditions | AUC(0-t) |
| --- | --- | --- | --- |
| CSCC[C@H](NC(=O)CNC(=O)[C@H](CC(=O)O)NC(=O)[C@@H](NC(=O)[C@@H](NC(=O)[C@@H](NC(=O)CNC(=O)[C@H](CCC(N)=O)NC(=O)[C@H](CCSC)NC(=O)[C@H](CC(=O)O)NC(=O)[C@H](C)NC(=O)[C@H](C)NC(=O)[C@@H](NC(=O)[C@H](CO)NC(=O)[C@@H](N)CC(C)C)[C@@H](C)O)C(C)C)C(C)C)[C@@H](C)O)C(=O)N[C@@H](C)C(=O)N[C@@H](CO)C(=O)NCC(=O)N[C@@H](CC(C)C)C(=O)N[C@@H](CC(=O)O)C(=O)N[C@@H](CCCCN)C(=O)N[C@@H](CC(=O)O)C(=O)N[C@@H](Cc1ccc(O)cc1)C(=O)N[C@@H](CC(C)C)C(=O)N[C@@H](CCCCN)C(=O)N1CCC[C@H]1C(=O)N[C@@H](CC(=O)O)C(=O)N[C@@H](CC(=O)O)C(=O)O | human, serum | intravenous, 2.5 mg/kg, patients, infusion | 1930 ng·h/mL |
| O=C(CN1CCN(c2cc3c(cc2F)c(=O)c(C(=O)O)cn3C2CC2)CC1)Nc1ccc(Cl)cc1 | BALB/c mice, female, plasma | iv, 3.75 mg/kg | 92400 ng·h/mL |
| O=c1cc(-c2ccccc2)oc2c(Br)c(O)c(O)c(O)c12 | C57BL/6 mouse, plasma | intravenous, 10 mg/kg, single dose | 2860 ng·h/mL |
| O=P1(NCCCl)NCCCO1 (stereo not drawn) | rat, plasma | intravenous, 10 mg/kg CP, added: ketoconazole 10 mg/kg oral 50 min before | 566 ± 158 ng·h/mL |
| COc1ccc(F)cc1S(=O)(=O)Nc1cnc2c(c1)C(=O)NCCO2 | C57BL/6J mice, plasma | oral, 0.3 mg/kg | 119 ± 27 ng‧h/mL |
| C[C@@H]1CC[C@H]2[C@@H](C)CO[C@@H]3O[C@@]4(C)CC[C@@H]1[C@]32OO4 | male Sprague-Dawley rat, plasma | intravenous, 5 mg/kg | 583 ng·h/mL |
| CCOC(=O)[C@@H]1Cc2c(cc([N+](=O)[O-])cc2[N+](=O)[O-])[C@H](O)[C@]12C(=O)Nc1ccc(Br)cc12 | rat | oral, 15 mg/kg | 12500 ng·h/mL |
| CC(C)[C@H]1NC(=O)C[C@H]2/C=C/CCSSC[C@@H](NC1=O)C(=O)N[C@H](Cc1cccc3ccccc13)C(=O)NCC(=O)O2 | BALB/cAJcl-nu/nu mice, blood | oral, 24 mg/kg | 0.272 to 2.22 ng·h/mL |
| CC[C@H](C)C(=O)N1CCC(NC(=O)Nc2ccc(OC(F)(F)F)c(F)c2)CC1 | human, plasma | oral, 8 mg, single dose, healthy volunteers | 3450 ng·h/mL |

Excerpt of the above:
| SMILES | system | conditions | AUC(0-t) |
| --- | --- | --- | --- |
| CSCC[C@H](NC(=O)CNC(=O)[C@H](CC(=O)O)NC(=O)[C@@H](NC(=O)[C@@H](NC(=O)[C@@H](NC(=O)CNC(=O)[C@H](CCC(N)=O)NC(=O)[C@H](CCSC)NC(=O)[C@H](CC(=O)O)NC(=O)[C@H](C)NC(=O)[C@H](C)NC(=O)[C@@H](NC(=O)[C@H](CO)NC(=O)[C@@H](N)CC(C)C)[C@@H](C)O)C(C)C)C(C)C)[C@@H](C)O)C(=O)N[C@@H](C)C(=O)N[C@@H](CO)C(=O)NCC(=O)N[C@@H](CC(C)C)C(=O)N[C@@H](CC(=O)O)C(=O)N[C@@H](CCCCN)C(=O)N[C@@H](CC(=O)O)C(=O)N[C@@H](Cc1ccc(O)cc1)C(=O)N[C@@H](CC(C)C)C(=O)N[C@@H](CCCCN)C(=O)N1CCC[C@H]1C(=O)N[C@@H](CC(=O)O)C(=O)N[C@@H](CC(=O)O)C(=O)O | human, serum | intravenous, 2.5 mg/kg, patients, infusion | 1930 ng·h/mL |
